Measured values gathered from unrelated publications.
Every numbered part comes from another study and shows a few of its results, in no order. Changes are numbered by the printed parent chain.

Study 1
Target: FOSB, bZIP domain (human)
Method: DHFR protein complementation
Matrix: yeast
Notes: single substitutions, most at no-binding floor
Baseline: wild-type JUN-FOS pair
Direction: higher = stronger binding
Starting sequence: JUN, bZIP domain (human); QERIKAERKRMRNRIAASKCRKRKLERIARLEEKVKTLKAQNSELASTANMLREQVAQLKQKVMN
| Change | binding fitness [natural log] |
| --- | --- |
| T48P | -1.23 |
| L52R | -1.3 |
| M51P | -1.32 |
| L52C | -1.37 |
| Q41F | -1.37 |
| L31P | -1.23 |
| L52E | -1.25 |
| E44P | -1.4 |
| L45G | -1.22 |
| N42E | -1.35 |
| S47P | -1.43 |
| E33P | -1.27 |
| L45T | -1.31 |

Study 2
Target: CCND2, cyclin fold, Cln2 fusion (human)
Method: yeast growth competition, sequencing
Matrix: yeast
Notes: weak parent motif
Baseline: not given
Direction: higher = stronger binding
Starting sequence: CDC6 docking peptide (human); TLKGRRLVFDNQL
| Change | normalised enrichment score |
| --- | --- |
| L2C | 0.367 |
| K3H | -0.152 |
| K3R | 0.303 |
| L13W | 0.621 |
| T1P | 0.125 |
| R5G | 0.278 |
| L2N | -0.0571 |
| N11Y | 0.529 |
| L13S | 0.466 |
| R6M | 0.0772 |
| R6A | 0.347 |
| Q12V | 0.38 |
| D10H | -0.189 |
| L7Y | 0.629 |
| V8Y | 0.136 |
| N11L | 0.186 |
| R6G | -0.266 |
| R6W | -0.468 |
| V8G | 0.0351 |
| F9I | 0.306 |
| F9P | 0.395 |
| R5T | 0.641 |
| G4P | 0.37 |
| L7S | -0.0864 |
| K3L | 0.478 |

Study 3
Target: UBE2Q1 UBC core domain (UniProt Q7Z7E8)
Method: yeast two-hybrid
Matrix: yeast
Notes: mostly zero background
Baseline: not given
Direction: higher = stronger interaction
B1: RNF149 RING domain (UniProt Q8NC42); chain EKGIDVDAENCAVCIENFKVKDIIRILPCKHIFHRICIDPWLLDHRTCPMCKLDVIKALGYW
B2: PHF7 RING domain (UniProt Q9BWX1); chain IQHGHVGEESCILCCEDLSQQSVENIQSPCCSQAIYHRKCIQKYAHTSAKHFFKCPQCNNRKEFPQEML
B3: TRIM3 RING domain (UniProt O75382); chain VQPMDKQFLVCSICLDRYQCPKVLPCLHTFCERCLQNYIPAQSLTLSCPVCRQTSILPEQGV
B4: UBE4A RING domain (UniProt Q14139); chain LQQQEEETYADACDEFLDPIMSTLMCDPVVLPSSRVTVDRSTIARHLLSDQTDPFNRSPLTMDQIRPNTELKEKIQRWLAERKQQKEQLE
B5: TRIM35 RING domain (UniProt Q9UPQ4); chain PSRSFKEELLCAVCYDPFRDAVTLRCGHNFCRGCVSRCWEVQVSPTCPVCKDRASPADLRT
B6: TRIM15 RING domain (UniProt Q9C019); chain SLKVVHELPACTLCAGPLEDAVTIPCGHTFCRLCLPALSQMGAQSSGKILLCPLCQEEEQAETPMA
B7: MSL2 RING domain (UniProt Q9HCI7); chain LLPYFRQSLSCCVCGHLLQDPIAPTNSTCQHYVCKTCKGKKMMMKPSCSWCKDYEQFEENKQ
B8: RNF5 RING domain (UniProt Q99942); chain ERGGAGATFECNICLETAREAVVSVCGHLYCWPCLHQWLETRPERQECPVCKAGISREKVVP
B9: RNF4 RING domain (UniProt P78317); chain TGLRPSGTVSCPICMDGYSEIVQNGRLIVSTECGHVFCSQCLRDSLKNANTCPTCRKKINHKRYHP
B10: NSMCE1 RING domain (UniProt Q8WV22); chain RETYPDAVKICNICHSLLIQGQSCETCGIRMHLPCVAKYFQSNAEPRCPHCNDYWPHEIPKV
B11: RNF14 RING domain (UniProt Q9UBS8); chain IKCFNSKLFLCSICFCEKLGSECMYFLECRHVYCKACLKDYFEIQIRDGQVQCLNCPEPKCPSVATPGQVK
B12: TRIM10 RING domain (UniProt Q9UDY6); chain SVTSLADEVNCPICQGTLREPVTIDCGHNFCRACLTRYCEIPGPDLEESPTCPLCKEPFRPGSFRP
B13: RFPL2 RING domain (UniProt O75678); chain MAALFQEASSCPVCSDYLEKPMSLECGCAVCLKCINSLQKEPHGEDLLCCCSSMVSRKNKIRR
Target sequence (chain): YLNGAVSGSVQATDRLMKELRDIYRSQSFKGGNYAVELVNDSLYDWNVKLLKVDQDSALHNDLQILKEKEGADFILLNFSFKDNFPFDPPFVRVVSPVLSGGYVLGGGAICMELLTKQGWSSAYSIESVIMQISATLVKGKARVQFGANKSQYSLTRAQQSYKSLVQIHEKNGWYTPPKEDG
| Molecule | lacZ reporter activity |
| --- | --- |
| B1 (RNF149 RING domain) | 0 |
| B2 (PHF7 RING domain) | 0 |
| B3 (TRIM3 RING domain) | 0 |
| B4 (UBE4A RING domain) | 0 |
| B5 (TRIM35 RING domain) | 0 |
| B6 (TRIM15 RING domain) | 0 |
| B7 (MSL2 RING domain) | 0 |
| B8 (RNF5 RING domain) | 0 |
| KRQCSDVDDICSICQAEFQKPILLICQHIFCEECMTLWFNREKTCPLCRTVISDHINKW (RNFT1 RING domain (UniProt Q5M7Z0)) | 0 |
| B9 (RNF4 RING domain) | 0 |
| SYEDKSNDFVCPICFDMIEEAYMTKCGHSFCYKCIHQSLEDNNRCPKCNYVVDNIDHLY (COP1 RING domain (UniProt Q8NHY2)) | 0 |
| B10 (NSMCE1 RING domain) | 0 |
| B11 (RNF14 RING domain) | 0 |
| B12 (TRIM10 RING domain) | 0 |
| B13 (RFPL2 RING domain) | 0 |

Study 4
Target: Prothrombin, mature alpha-thrombin (F2, Homo sapiens, UniProt P00734)
Method: aptamer microarray, sandwich
Molecule type: DNA with 2'F-ANA
Matrix: in vitro
Concentration: 200 nM
Notes: whole 15-mer aptamer, many near background
Together with: Cy3 exosite-II aptamer, 400 nM
Direction: higher = stronger binding
Oligonucleotide: GGTTGGTGTGGTTGG
| Modification | mean fluorescence intensity [a.u.] |
| --- | --- |
| 2'F-ANA at 1 6 7 8 10 11 14 15 | 51.2 |
| 2'F-ANA at 2 3 4 7 9 14 | 304 |
| 2'F-ANA at 1 2 10 12 13 15 | 69.8 |
| 2'F-ANA at 4 5 6 7 8 10 12 15 | 51.7 |
| 2'F-ANA at 1 3 4 8 10 12 13 | 71.3 |
| 2'F-ANA at 5 7 10 11 12 13 14 | 51.7 |
| 2'F-ANA at 2 3 5 8 9 10 11 12 13 | 81 |
| 2'F-ANA at 1 2 3 4 6 7 8 10 14 | 47.5 |
| 2'F-ANA at 3 4 9 10 11 13 14 | 201 |
| 2'F-ANA at 2 3 4 7 9 10 13 | 227 |
| 2'F-ANA at 1 2 3 5 6 8 9 12 13 | 87.2 |
| 2'F-ANA at 2 5 6 8 10 12 13 15 | 51.5 |
| 2'F-ANA at 1 4 10 13 | 43.7 |
| 2'F-ANA at 1 3 4 8 9 10 11 14 | 62.6 |
| 2'F-ANA at 5 9 11 13 14 15 | 45.8 |
| 2'F-ANA at 2 3 5 6 7 9 11 12 13 14 | 62.4 |
| 2'F-ANA at 5 6 11 13 | 56.8 |
| 2'F-ANA at 1 2 3 4 8 10 12 14 15 | 63.3 |
| 2'F-ANA at 3 6 9 11 15 | 807 |
| 2'F-ANA at 2 5 6 9 14 15 | 48 |
| 2'F-ANA at 1 2 3 4 6 8 9 10 11 15 | 56.5 |
| 2'F-ANA at 3 4 8 11 12 13 15 | 739 |
| 2'F-ANA at 2 3 4 5 6 7 8 9 10 14 | 79 |
| 2'F-ANA at 3 4 5 7 8 9 10 12 | 62.9 |
| 2'F-ANA at 1 2 4 8 9 10 | 52.5 |

Study 5
Target: Interferon regulatory factor 3, full length, phosphomimetic (IRF3, Homo sapiens, UniProt Q14653, residues 1-427, S386D/S396D/S398D/S402D/T404D/S405D)
Method: protein-binding microarray
Molecule type: double-stranded DNA, one strand shown
Matrix: in vitro
Concentration: 2540 nM top
Notes: 60-bp whole probe
Together with: salmon DNA 0.4 mg/ml
Baseline: random background probes
Direction: higher = stronger binding
All sequences stand within: GCCTAGCAC … GTCTTGATTCGCTTGACGCTGCTG
Construct (chain): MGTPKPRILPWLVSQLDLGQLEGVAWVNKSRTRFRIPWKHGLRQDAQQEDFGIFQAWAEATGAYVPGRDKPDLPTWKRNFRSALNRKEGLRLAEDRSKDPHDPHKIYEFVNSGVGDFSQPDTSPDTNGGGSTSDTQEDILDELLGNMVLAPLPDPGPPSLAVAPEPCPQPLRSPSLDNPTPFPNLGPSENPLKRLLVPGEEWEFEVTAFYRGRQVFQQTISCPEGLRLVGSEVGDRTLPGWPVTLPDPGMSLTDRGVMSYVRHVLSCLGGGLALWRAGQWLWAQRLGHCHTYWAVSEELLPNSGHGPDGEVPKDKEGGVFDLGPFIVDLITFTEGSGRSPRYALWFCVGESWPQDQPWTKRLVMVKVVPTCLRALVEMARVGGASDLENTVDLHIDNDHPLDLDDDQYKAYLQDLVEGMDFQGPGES
| Oligonucleotide | fitted relative affinity [z-score] |
| --- | --- |
| CTCTGCTTGTGTCTGGGCTTGTGCTAG | -0.634 |
| TCATATTAGAGTCTCAAACTGTGCTAG | 0.632 |
| TTAGGTTTCCTTCTCCTTTAGTGCTAG | 10.1 |
| TTACGTTTCGGACTGGGTTAGTGCTAG | 3.41 |
| GACGATTTCAGTATCGAGATGTGCTAG | 2.5 |
| GACGGTTTCGGGTTTCAGGACGTGCTA | 5.74 |
| TCATGTCTCTGGCCTGGGACTGTGCTA | -0.54 |
| TTAGGTTCCGGACTGGGTTAGTGCTAG | 2.52 |
| TTAGCTTTCGGTTTCGGTTAGTGCTAG | 9.03 |
| GTAGATATCAGACTGGATTAGTGCTAG | 0.133 |
| GACGGTCTCCTTCTCCTGCCGTGCTAG | 3.83 |
| TCACTTTGGCCTCTAGGACTGTGCTAG | -0.226 |
| GATGGTTTCCTTTTCCTGACGTGCTAG | 10.9 |
| TTAGGACTGCCTCTCCTTTAGTGCTAG | -0.673 |
| TCAAATTCCAAGTTCATACTGTGCTAG | 0.954 |
| AACGAACTGAGTATCGAGACGTGCTAG | 0.00392 |
| TTAGGTATCGACTCTGGGTTAGTGCTA | 0.651 |
| GACGAACTGAGACTGGAGATGTGCTAG | -0.294 |

Repeated from above (study 2):
| Change | normalised enrichment score |
| --- | --- |
| R5G | 0.278 |
| L2N | -0.0571 |
| N11Y | 0.529 |
| L13S | 0.466 |
| R6M | 0.0772 |
| R6A | 0.347 |
| Q12V | 0.38 |
| D10H | -0.189 |
| L7Y | 0.629 |
| V8Y | 0.136 |
| N11L | 0.186 |
| R6G | -0.266 |
| R6W | -0.468 |
| V8G | 0.0351 |
